Measurements of several laboratories.
Parts stem from different laboratories: compare values within a part only.
UniProt Q9NQU5, sequence (whole entry, looked up): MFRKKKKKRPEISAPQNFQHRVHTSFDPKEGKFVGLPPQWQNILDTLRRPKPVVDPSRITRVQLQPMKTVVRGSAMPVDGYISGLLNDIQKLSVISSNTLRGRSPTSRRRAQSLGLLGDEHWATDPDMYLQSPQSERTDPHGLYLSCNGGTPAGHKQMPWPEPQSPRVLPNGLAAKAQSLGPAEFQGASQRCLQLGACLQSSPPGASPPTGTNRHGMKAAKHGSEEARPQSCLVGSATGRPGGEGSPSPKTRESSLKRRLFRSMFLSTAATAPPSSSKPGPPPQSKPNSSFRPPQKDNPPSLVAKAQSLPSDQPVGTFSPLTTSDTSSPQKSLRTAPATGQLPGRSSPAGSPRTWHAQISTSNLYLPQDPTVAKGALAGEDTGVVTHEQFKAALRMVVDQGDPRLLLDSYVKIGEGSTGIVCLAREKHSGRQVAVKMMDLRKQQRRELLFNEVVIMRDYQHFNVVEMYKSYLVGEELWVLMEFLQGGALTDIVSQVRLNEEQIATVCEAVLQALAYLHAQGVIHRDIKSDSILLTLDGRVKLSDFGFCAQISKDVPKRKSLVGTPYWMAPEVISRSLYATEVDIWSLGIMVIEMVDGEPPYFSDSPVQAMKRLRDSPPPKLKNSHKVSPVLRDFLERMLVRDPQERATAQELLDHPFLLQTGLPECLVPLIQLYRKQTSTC
UniProt P42336, sequence (whole entry, unmodified, looked up): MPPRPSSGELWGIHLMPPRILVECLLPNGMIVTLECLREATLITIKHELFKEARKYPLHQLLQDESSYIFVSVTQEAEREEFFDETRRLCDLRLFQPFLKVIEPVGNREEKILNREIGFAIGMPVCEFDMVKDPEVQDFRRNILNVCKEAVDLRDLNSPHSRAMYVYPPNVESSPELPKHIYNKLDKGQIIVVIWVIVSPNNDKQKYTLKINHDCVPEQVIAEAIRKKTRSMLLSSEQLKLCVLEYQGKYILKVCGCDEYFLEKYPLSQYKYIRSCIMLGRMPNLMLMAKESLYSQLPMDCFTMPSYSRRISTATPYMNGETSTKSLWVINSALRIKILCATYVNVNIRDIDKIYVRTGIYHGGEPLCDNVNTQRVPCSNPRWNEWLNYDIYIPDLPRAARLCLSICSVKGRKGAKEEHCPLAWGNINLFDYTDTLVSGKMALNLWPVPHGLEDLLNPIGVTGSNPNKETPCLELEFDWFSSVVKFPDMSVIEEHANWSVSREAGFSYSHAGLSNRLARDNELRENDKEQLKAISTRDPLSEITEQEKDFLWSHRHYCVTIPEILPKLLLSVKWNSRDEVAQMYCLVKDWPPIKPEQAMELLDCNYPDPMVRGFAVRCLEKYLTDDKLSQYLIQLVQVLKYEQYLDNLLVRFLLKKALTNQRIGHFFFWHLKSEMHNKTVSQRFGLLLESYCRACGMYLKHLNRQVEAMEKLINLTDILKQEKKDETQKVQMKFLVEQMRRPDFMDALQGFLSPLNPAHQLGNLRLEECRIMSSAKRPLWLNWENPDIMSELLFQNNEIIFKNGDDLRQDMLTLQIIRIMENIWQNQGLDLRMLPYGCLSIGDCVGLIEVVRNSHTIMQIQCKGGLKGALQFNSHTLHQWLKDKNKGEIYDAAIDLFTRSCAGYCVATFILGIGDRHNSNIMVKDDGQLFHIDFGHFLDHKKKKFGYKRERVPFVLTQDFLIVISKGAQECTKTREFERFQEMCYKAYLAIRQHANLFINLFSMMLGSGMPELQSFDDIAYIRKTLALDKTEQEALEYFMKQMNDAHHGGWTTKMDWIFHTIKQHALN
UniProt Q08881, sequence (whole entry, looked up): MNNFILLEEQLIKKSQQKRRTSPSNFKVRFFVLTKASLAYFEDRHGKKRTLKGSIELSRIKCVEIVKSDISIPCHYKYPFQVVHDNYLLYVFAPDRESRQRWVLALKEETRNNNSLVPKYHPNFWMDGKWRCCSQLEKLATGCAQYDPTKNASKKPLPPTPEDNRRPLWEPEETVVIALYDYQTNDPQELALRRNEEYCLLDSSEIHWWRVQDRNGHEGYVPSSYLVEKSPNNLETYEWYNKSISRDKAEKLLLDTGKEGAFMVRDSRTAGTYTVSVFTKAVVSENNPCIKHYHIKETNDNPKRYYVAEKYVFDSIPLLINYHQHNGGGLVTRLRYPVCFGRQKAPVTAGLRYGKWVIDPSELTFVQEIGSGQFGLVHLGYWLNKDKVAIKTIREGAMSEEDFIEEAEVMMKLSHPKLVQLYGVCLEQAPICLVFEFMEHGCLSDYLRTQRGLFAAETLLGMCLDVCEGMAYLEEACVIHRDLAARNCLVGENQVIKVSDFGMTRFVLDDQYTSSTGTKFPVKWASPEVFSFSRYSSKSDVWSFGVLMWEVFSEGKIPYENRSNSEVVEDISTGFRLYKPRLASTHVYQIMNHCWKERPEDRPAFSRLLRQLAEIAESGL
UniProt Q9P0L2, sequence (whole entry, looked up): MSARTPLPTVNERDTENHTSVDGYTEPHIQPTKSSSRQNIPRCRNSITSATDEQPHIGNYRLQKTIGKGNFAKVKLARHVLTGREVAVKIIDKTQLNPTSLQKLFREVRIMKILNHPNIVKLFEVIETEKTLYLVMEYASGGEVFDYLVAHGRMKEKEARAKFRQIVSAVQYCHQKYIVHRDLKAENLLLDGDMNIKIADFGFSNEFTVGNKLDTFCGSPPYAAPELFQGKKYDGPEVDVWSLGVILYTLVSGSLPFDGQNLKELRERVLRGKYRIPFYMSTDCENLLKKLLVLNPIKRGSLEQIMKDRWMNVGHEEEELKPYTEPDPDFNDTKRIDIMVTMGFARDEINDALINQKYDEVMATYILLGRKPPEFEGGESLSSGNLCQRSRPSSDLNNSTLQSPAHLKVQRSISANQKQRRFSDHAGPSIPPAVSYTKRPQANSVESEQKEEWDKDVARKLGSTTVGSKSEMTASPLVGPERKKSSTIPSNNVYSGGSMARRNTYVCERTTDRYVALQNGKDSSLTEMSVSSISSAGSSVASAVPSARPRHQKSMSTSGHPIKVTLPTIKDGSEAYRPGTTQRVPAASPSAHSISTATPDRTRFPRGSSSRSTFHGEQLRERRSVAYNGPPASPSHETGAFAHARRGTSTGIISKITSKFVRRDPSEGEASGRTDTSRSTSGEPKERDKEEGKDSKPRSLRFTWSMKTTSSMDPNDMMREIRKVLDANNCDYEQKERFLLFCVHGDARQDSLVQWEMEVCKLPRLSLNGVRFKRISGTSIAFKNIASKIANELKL

Set 1
SMILES: Cc1nc(Nc2ncc(C(=O)Nc3c(C)cccc3Cl)s2)cc(N2CCN(CCO)CC2)n1
Mode: inhibitor
Quantity: inhibition
target = MAP2K2 (Homo sapiens, UniProt P36507); concentration = 10 µM; result = 98%
target = RET (Homo sapiens, UniProt P07949, V804L); concentration = 10 µM; result = < 50%
target = RIPK1 (Homo sapiens, UniProt Q13546); concentration = 10 µM; result = < 50%
target = PAK6 (Homo sapiens, UniProt Q9NQU5); concentration = 10 µM; result = < 50%
target = ERBB2 (Homo sapiens, UniProt P04626); concentration = 1 µM; result = 91%
target = MAPK10 (Homo sapiens, UniProt P53779); concentration = 10 µM; result = < 50%
target = PLK4 (Homo sapiens, UniProt O00444); concentration = 10 µM; result = < 50%
target = MAPK4 (Homo sapiens, UniProt P31152); concentration = 10 µM; result = < 50%
target = ITK (Homo sapiens, UniProt Q08881); concentration = 10 µM; result = < 50%
target = LIM domain kinase 2 (LIMK2, Homo sapiens, UniProt P53671); concentration = 10 µM; result = 100%
target = Ribosomal protein S6 kinase alpha-1, kinase domain 1 (RPS6KA1, Homo sapiens, UniProt Q15418); concentration = 10 µM; result = < 50%
target = CDK19 (Homo sapiens, UniProt Q9BWU1); concentration = 10 µM; result = < 50%

Set 2
Target: Homeodomain-interacting protein kinase 1 (HIPK1, Homo sapiens, UniProt Q86Z02)
UniProt Q86Z02, sequence (whole entry, looked up): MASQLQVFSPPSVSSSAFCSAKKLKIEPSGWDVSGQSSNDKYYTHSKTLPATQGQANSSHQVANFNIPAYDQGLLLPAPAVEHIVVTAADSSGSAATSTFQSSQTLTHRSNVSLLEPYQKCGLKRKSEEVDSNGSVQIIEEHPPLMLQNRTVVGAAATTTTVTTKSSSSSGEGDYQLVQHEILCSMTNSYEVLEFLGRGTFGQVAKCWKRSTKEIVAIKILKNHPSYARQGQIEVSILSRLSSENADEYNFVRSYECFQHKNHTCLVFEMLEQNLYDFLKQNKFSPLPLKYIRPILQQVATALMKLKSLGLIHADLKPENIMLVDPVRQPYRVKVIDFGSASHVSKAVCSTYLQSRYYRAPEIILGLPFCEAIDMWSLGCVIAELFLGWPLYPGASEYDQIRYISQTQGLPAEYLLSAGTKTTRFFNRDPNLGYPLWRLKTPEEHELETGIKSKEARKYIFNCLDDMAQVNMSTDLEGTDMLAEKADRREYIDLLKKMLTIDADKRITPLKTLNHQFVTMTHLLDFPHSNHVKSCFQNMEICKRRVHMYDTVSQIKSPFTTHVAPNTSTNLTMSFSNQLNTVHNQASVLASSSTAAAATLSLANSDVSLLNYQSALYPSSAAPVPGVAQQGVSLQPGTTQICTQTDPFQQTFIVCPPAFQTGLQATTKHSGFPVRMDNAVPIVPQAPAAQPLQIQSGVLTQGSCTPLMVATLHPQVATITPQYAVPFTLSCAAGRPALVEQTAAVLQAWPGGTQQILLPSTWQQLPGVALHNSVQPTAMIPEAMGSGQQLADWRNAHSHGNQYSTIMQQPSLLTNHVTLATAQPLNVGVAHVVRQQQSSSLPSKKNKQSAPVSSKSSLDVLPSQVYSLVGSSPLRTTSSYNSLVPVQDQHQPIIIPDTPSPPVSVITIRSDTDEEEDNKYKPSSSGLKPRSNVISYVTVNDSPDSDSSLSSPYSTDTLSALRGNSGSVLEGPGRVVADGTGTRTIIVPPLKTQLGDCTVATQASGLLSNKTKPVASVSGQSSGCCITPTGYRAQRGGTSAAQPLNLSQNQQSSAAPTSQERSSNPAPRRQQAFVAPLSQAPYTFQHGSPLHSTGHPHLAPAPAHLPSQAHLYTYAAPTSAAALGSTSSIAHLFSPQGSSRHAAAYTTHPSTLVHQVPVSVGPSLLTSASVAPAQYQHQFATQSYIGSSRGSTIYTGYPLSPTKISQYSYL
Effect on: enzyme activity
Mode: inhibitor
Concentration: 0.5 µM
Baseline: control
Quantity: remaining activity
Structure (SMILES) = COc1cc2ncnc(Nc3ccc(O)c(Br)c3)c2cc1OC; result = 104%
Structure (SMILES) = Cc1nc2cc3nc(-c4cccs4)cnc3cc2n1C; result = 103%
Structure (SMILES) = O=C1c2ccccc2-c2n[nH]c3cccc1c23; result = 93.9%
Structure (SMILES) = C[C@@H]1CCN(C(=O)CC#N)C[C@@H]1N(C)c1ncnc2[nH]ccc12; result = 98.1%
Structure (SMILES) = CN([C@@H](Cc1ccc(OS(=O)(=O)c2cccc3cnccc23)cc1)C(=O)N1CCN(c2ccccc2)CC1)S(=O)(=O)c1cccc2cnccc12; result = 110%
Structure (SMILES) = Nc1cccc(-c2cc3c(Oc4cccc(O)c4)ncnc3[nH]2)c1; result = 82.7%
Structure (SMILES) = c1ccc(-c2[nH]ncc2-c2ccnc3ccccc23)nc1; result = 99.9%
Structure (SMILES) = O=C(NC(NC(=S)Nc1ccc(F)c([N+](=O)[O-])c1)C(Cl)(Cl)Cl)C(c1ccccc1)c1ccccc1 (stereo not drawn); result = 108%
Structure (SMILES) = CCN(CC)CCNC(=O)c1c(C)[nH]c(/C=C2\C(=O)Nc3ccc(Cl)cc32)c1C; result = 96.9%
Structure (SMILES) = O=C1C(Cl)=C(N2C(=O)CCC2=O)C(=O)c2ccccc21; result = 104%
Structure (SMILES) = CCN(CC)CCNC(=O)c1c(C)[nH]c(/C=C2\C(=O)Nc3ccc(F)cc32)c1C; result = 71.3%
Structure (SMILES) = c1ccc(-c2cnc(Nc3ccc(OCCN4CCCC4)cc3)s2)cc1; result = 91.3%
Structure (SMILES) = Ic1cccc(CSc2nnc(-c3ccncc3)o2)c1; result = 105%
Structure (SMILES) = CN(C)C[C@H]1CCn2c(c(C3=C(c4cn(C)c5ccccc45)C(=O)NC3=O)c3ccccc32)C1; result = 101%
Structure (SMILES) = N#Cc1c(NC(=O)c2cccc3ccccc23)sc2c1CCCC2; result = 107%
Structure (SMILES) = CCN(CC)C(=O)c1ccc(Nc2nc(OCC3CCCCC3)c3[nH]cnc3n2)cc1; result = 104%
Structure (SMILES) = O=c1cc(-c2cccc3c2Sc2ccccc2S3)oc(N2CCOCC2)c1; result = 99.6%
Structure (SMILES) = COc1cc2c(cc1OC)-c1[nH]nc(Nc3cccc(F)c3)c1C2; result = 96.4%
Structure (SMILES) = Cc1cn(-c2cc(NC(=O)c3ccc(C)c(Nc4nccc(-c5cccnc5)n4)c3)cc(C(F)(F)F)c2)cn1; result = 97.7%
Structure (SMILES) = O=C(Nc1cccc(Nc2nccc(Nc3cccc(C(F)(F)F)c3)n2)c1)C1CC1; result = 98.7%
Structure (SMILES) = Cn1nc2c3c(cccc31)C(=O)c1ccccc1-2; result = 112%
Structure (SMILES) = N#C/C(=C\c1ccc(O)c(O)c1)C(=O)NCc1ccccc1; result = 101%
Structure (SMILES) = COc1cc2ncnc(Nc3cccc(Cl)c3)c2cc1OC; result = 98.7%
Structure (SMILES) = Cc1cc2ncc(-c3ccccc3)nc2cc1C; result = 105%

Set 3
Target: 5-hydroxytryptamine receptor 1E (HTR1E, Homo sapiens, UniProt P28566)
UniProt P28566, sequence (whole entry, looked up): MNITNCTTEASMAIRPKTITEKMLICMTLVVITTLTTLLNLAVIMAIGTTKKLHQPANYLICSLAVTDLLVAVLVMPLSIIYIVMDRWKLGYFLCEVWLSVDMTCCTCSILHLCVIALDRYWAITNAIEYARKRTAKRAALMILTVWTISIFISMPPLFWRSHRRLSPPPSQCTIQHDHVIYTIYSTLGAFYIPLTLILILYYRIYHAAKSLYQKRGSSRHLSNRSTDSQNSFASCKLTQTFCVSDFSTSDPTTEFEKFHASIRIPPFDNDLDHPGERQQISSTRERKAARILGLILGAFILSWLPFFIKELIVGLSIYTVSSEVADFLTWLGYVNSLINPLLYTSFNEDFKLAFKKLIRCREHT
Effect on: ligand displacement
Method: radioligand
Concentration: 10 µM
Quantity: inhibition
SMILES = CC(C)CC(=O)N1CCc2nc(-c3ccc(Br)cc3)nc(N(C)Cc3ccccc3)c2C1; result = -5.76%
SMILES = CC(=O)N1CCC(c2ccc(C(=O)NC(=N)N)cc2C(F)(F)F)CC1; result = -9.59%
SMILES = Cc1c(NC(=O)c2cc(C(N)=O)nc3cc(F)ccc23)c(C(F)(F)F)nn1Cc1ccc(C(C)(C)C)cc1; result = 7.98%
SMILES = O=C(N[C@H]1CCCCC/C=C\C2C[C@@]2(C(=O)O)NC(=O)[C@@H]2C[C@@H](Oc3ccncc3)CN2C1=O)OC1CCCC1 (stereo partly drawn); result = 0%
SMILES = Cn1cc(Cl)c2c(Oc3c(F)cc(Nc4cc(Cl)nc(N)n4)cc3F)ccnc21; result = -26.3%
SMILES = Cc1cc(NC(=O)c2cccc(S(F)(F)(F)(F)F)c2)cc(-n2ccn3nc(-c4cccnc4)cc23)c1; result = 10.6%
SMILES = C[C@@H]1CN(c2cc(-c3nn(C)c4ccc(OC5(C)CC5)cc34)ncn2)C[C@H](C)O1; result = -0.18%
SMILES = CN([C@@H]1CCc2c(CC(=O)O)c3ccccc3n2C1)S(=O)(=O)c1ccc(F)cc1; result = 35.8%
SMILES = CCNC(=O)c1cc2c(N3CCOC[C@@H]3C)ccnc2[nH]1; result = 10.6%
SMILES = O=C(NS(=O)(=O)c1ccc(NCC2CCOCC2)c([N+](=O)[O-])c1)c1ccc(N2CCN(Cc3ccc(C(F)(F)F)cc3-c3ccc(Cl)cc3)CC2)cc1Oc1cnc2[nH]ccc2c1; result = 10.4%
SMILES = CN1CCN(C(=O)C(C)(C)c2ccc(C(=O)Nc3cn4cc(-c5ccncc5)ccc4n3)cc2)CC1; result = -1.52%
SMILES = O=C(N1CCS(=O)(=O)CC1)N1C[C@H](c2ccc(OC(F)(F)F)cc2)C[C@H](c2nc(C3CC3)no2)C1; result = -20.3%
SMILES = CCC(=N\O)/C(C)=C/c1ccc(F)cc1; result = 6.66%
SMILES = CCS(=O)(=O)c1cc2cc(C[C@@](O)(CC(C)(C)c3ccc(F)cc3C(N)=O)C(F)(F)F)[nH]c2cn1; result = 11.2%
SMILES = CCCCN(CCCC)C(=O)CN1C[C@H](c2cc(OC)c3c(c2)OCO3)[C@@H](C(=O)O)[C@@H]1CC(C)(C)CCC; result = 3.64%
SMILES = Cc1nc(N2CC[C@@H](O)C2)ncc1-c1cc(C(F)(F)F)cc2[nH]ncc12; result = -5.65%
SMILES = Cc1cnc(-c2cc(Cl)ccc2F)cc1-n1c(=O)n(CC(N)=O)c2cnccc21; result = -5.81%
SMILES = CC(=O)c1c(NS(C)(=O)=O)c2cc(-c3ccc(Cl)cc3)c(-c3ccc(Cl)cc3Cl)nc2n(C)c1=O; result = 29.2%
SMILES = CN(C)C(=O)Cn1cc(-c2nc(C3(c4ccc(-c5cnc(N)nc5)cc4)CC3)no2)cn1; result = -7.33%
SMILES = O=C1NC(c2ccccn2)Sc2ccccc21 (stereo not drawn); result = -0.383%

Set 4
SMILES: COc1ccc2[nH]c3c4[nH]c5ccc(OC)cc5c4c4c(c3c2c1)C(=O)NC4=O
Concentration: 1 µM
Quantity: remaining binding
target = PIK3CA (Homo sapiens, UniProt P42336, M1043I); method = competitive binding panel; baseline = vehicle; result = 95%
target = CIT (Homo sapiens, UniProt O14578); method = competitive binding panel; baseline = vehicle; result = 35%
target = NTRK3 (Homo sapiens, UniProt Q16288); method = competitive binding; notes = TRKC; result = 47%
target = PKN2 (Homo sapiens, UniProt Q16513); method = competitive binding panel; baseline = vehicle; result = 52%
target = PIK3CA (Homo sapiens, UniProt P42336, E542K); method = competitive binding panel; baseline = vehicle; result = 92%
target = CAMK2A (Homo sapiens, UniProt Q9UQM7); method = competitive binding panel; baseline = vehicle; result = 70%
target = MAP3K4 (Homo sapiens, UniProt Q9Y6R4); method = competitive binding panel; baseline = vehicle; result = 100%
target = MARK1 (Homo sapiens, UniProt Q9P0L2); method = competitive binding panel; baseline = vehicle; result = 100%
target = GRK7 (Homo sapiens, UniProt Q8WTQ7); method = competitive binding panel; baseline = vehicle; result = 64%
target = ALK (Homo sapiens, UniProt Q9UM73); method = competitive binding panel; baseline = vehicle; result = 55%
target = PAK6 (Homo sapiens, UniProt Q9NQU5); method = competitive binding panel; baseline = vehicle; result = 100%
target = EGFR (Homo sapiens, UniProt P00533); method = competitive binding panel; baseline = vehicle; result = 51%
target = TLK1 (Homo sapiens, UniProt Q9UKI8); method = competitive binding panel; baseline = vehicle; result = 100%
target = NEK4 (Homo sapiens, UniProt P51957); method = competitive binding panel; baseline = vehicle; result = 85%
target = KDR (Homo sapiens, UniProt P35968); method = competitive binding; notes = VEGFR2; result = 59%
target = MAP2K3 (Homo sapiens, UniProt P46734); method = competitive binding panel; refers to = MEK3; baseline = vehicle; result = 46%

A few entries again (set 3):
SMILES = CN([C@@H]1CCc2c(CC(=O)O)c3ccccc3n2C1)S(=O)(=O)c1ccc(F)cc1; result = 35.8%
SMILES = CCNC(=O)c1cc2c(N3CCOC[C@@H]3C)ccnc2[nH]1; result = 10.6%
SMILES = O=C(NS(=O)(=O)c1ccc(NCC2CCOCC2)c([N+](=O)[O-])c1)c1ccc(N2CCN(Cc3ccc(C(F)(F)F)cc3-c3ccc(Cl)cc3)CC2)cc1Oc1cnc2[nH]ccc2c1; result = 10.4%
SMILES = CN1CCN(C(=O)C(C)(C)c2ccc(C(=O)Nc3cn4cc(-c5ccncc5)ccc4n3)cc2)CC1; result = -1.52%
SMILES = O=C(N1CCS(=O)(=O)CC1)N1C[C@H](c2ccc(OC(F)(F)F)cc2)C[C@H](c2nc(C3CC3)no2)C1; result = -20.3%
SMILES = CCC(=N\O)/C(C)=C/c1ccc(F)cc1; result = 6.66%
SMILES = CCS(=O)(=O)c1cc2cc(C[C@@](O)(CC(C)(C)c3ccc(F)cc3C(N)=O)C(F)(F)F)[nH]c2cn1; result = 11.2%
SMILES = CCCCN(CCCC)C(=O)CN1C[C@H](c2cc(OC)c3c(c2)OCO3)[C@@H](C(=O)O)[C@@H]1CC(C)(C)CCC; result = 3.64%
SMILES = Cc1nc(N2CC[C@@H](O)C2)ncc1-c1cc(C(F)(F)F)cc2[nH]ncc12; result = -5.65%
SMILES = Cc1cnc(-c2cc(Cl)ccc2F)cc1-n1c(=O)n(CC(N)=O)c2cnccc21; result = -5.81%
SMILES = CC(=O)c1c(NS(C)(=O)=O)c2cc(-c3ccc(Cl)cc3)c(-c3ccc(Cl)cc3Cl)nc2n(C)c1=O; result = 29.2%
